Measured values pooled from the literature.
Each numbered part is a random draw from the data of one study; scales do not carry over between parts.
Chain of UniProt P03951 (whole entry, looked up): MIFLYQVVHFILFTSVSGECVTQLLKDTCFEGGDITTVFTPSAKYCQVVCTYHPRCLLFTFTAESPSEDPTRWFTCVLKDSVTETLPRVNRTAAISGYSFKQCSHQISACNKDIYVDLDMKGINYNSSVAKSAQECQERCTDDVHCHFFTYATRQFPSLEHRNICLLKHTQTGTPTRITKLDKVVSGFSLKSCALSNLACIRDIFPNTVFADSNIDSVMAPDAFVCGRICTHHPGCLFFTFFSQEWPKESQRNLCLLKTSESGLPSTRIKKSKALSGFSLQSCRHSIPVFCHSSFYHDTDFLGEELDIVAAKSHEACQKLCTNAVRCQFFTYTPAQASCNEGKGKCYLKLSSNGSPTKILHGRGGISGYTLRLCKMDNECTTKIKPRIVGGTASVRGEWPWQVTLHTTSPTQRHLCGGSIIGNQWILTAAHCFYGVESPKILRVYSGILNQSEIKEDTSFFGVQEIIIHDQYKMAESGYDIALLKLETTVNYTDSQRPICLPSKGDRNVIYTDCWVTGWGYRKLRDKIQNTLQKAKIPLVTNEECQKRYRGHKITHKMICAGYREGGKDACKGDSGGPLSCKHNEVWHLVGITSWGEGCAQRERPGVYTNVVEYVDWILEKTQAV
Chain of UniProt Q9H3Y6 (whole entry, looked up): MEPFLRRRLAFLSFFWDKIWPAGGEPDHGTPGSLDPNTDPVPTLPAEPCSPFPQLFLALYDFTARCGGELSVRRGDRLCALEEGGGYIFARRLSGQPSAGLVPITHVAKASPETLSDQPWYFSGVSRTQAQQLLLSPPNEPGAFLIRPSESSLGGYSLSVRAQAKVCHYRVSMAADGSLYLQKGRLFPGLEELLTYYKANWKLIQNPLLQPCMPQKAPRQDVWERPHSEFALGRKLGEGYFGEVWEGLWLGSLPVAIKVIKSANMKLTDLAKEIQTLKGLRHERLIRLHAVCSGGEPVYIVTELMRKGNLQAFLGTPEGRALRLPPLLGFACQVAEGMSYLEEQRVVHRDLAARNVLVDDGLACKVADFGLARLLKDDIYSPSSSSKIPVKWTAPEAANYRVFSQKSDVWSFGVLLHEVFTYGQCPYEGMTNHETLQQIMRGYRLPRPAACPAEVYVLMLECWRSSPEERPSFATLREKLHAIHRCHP
Chain of UniProt Q8IU80 (whole entry, looked up): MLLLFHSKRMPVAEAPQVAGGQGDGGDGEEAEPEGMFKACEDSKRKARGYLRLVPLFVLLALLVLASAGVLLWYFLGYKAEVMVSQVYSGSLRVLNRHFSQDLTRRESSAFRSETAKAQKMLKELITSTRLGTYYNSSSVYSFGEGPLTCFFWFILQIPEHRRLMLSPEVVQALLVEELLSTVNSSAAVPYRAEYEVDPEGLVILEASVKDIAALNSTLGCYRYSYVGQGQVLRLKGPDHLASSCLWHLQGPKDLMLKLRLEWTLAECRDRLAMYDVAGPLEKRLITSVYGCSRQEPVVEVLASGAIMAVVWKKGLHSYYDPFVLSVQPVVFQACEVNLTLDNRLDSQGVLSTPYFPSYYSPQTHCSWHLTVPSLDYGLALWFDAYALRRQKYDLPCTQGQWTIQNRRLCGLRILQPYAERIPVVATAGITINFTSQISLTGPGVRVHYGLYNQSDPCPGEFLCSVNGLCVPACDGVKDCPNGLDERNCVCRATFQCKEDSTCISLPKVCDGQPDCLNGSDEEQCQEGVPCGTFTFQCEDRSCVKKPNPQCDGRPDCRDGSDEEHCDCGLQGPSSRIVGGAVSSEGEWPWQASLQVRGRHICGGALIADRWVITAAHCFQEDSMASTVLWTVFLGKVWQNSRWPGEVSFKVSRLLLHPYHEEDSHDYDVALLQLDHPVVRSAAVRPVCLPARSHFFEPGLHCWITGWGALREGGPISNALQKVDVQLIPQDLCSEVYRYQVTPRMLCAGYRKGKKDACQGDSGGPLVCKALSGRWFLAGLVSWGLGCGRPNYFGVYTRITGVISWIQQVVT
Chain of UniProt Q9UKR0 (whole entry, looked up): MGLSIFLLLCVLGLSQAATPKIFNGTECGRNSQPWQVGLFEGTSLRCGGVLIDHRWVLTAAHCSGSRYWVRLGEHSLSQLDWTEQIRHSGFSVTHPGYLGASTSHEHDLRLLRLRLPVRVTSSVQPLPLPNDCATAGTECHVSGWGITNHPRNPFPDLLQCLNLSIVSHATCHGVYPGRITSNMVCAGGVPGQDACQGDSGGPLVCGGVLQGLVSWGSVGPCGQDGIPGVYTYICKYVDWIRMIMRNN
Chain of UniProt Q96NX5 (whole entry, looked up): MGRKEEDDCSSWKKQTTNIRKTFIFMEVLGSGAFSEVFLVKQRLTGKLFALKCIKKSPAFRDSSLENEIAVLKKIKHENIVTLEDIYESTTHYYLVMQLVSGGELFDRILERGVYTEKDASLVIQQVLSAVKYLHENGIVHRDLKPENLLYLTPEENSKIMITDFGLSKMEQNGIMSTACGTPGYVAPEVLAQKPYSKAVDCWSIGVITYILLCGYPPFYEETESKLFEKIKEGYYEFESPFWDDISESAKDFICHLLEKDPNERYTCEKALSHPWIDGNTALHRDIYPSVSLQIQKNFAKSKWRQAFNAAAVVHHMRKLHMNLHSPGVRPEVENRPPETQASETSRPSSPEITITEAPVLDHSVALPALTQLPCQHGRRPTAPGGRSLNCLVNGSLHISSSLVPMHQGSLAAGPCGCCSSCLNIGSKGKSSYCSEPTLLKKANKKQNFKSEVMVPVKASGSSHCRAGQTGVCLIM
Chain of UniProt Q00534 (whole entry, looked up): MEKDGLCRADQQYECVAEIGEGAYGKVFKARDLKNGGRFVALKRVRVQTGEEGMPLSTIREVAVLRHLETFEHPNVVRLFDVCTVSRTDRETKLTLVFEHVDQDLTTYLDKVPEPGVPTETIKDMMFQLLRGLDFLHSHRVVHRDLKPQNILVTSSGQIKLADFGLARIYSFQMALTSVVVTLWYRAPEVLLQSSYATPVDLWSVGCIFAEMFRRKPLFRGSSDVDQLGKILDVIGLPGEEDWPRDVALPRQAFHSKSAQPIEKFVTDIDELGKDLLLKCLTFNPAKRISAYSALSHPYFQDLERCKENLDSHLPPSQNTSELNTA
Chain of UniProt P00747 (whole entry, looked up): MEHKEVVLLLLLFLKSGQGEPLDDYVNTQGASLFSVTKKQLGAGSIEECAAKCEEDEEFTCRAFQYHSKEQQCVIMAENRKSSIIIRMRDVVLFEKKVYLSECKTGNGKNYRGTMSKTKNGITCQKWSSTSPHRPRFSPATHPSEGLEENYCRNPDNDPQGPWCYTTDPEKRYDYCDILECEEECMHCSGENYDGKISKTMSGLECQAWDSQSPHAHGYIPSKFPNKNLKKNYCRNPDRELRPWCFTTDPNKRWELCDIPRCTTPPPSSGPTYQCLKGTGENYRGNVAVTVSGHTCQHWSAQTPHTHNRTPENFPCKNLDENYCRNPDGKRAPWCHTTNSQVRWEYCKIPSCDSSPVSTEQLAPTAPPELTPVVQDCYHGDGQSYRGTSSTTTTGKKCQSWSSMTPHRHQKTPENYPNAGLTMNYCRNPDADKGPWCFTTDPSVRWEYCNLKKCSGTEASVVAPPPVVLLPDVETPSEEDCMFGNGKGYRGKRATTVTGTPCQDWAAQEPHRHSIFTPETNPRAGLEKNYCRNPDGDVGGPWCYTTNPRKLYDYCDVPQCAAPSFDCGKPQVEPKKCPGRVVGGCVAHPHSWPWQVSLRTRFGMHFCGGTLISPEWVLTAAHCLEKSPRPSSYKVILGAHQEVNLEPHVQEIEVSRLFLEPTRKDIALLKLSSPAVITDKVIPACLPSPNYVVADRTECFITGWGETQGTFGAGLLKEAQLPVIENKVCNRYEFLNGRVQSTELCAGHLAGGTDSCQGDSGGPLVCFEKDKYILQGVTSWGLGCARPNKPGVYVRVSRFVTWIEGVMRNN
Chain of UniProt Q9P0G3 (whole entry, looked up): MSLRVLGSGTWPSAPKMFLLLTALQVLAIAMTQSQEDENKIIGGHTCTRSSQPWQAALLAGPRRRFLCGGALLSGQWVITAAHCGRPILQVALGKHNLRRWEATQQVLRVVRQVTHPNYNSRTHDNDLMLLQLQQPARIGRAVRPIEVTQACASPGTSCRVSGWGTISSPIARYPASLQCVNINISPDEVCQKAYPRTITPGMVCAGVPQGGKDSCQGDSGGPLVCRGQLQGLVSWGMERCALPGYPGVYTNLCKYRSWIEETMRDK

Study 1 — cell line: HEK-293T-ACE2-TMPRSS2; method: cell count; tested at: 10 µM; endpoint: viability
CC(C)CC1(C)NC(=O)N(Cc2cc([N+](=O)[O-])cc3c2OCOC3)C1=O (stereo not drawn): 104%
COC[C@@H]1CN(C(=O)c2ccc3[nH]ccc3c2)C[C@H]1c1nc(C)no1: 100%
COc1cccc2c1OCC(C(=O)NCCSc1nnnn1C)C2 (stereo not drawn): 86%
CC(C)CCNC(=O)c1cccc(Nc2ccc(-c3ccccc3)nn2)c1: 71%
CCc1nc(-c2ccc(C(=O)NCCc3ccc(Cl)cc3)cc2)cs1: 104%
CC(=O)N1CCN(C(=O)CC2c3ccccc3CCc3ccccc32)CC1: 110%
Cn1cnnc1S/C=C/C(=O)c1ccc(F)cc1: 77%

Study 2 — Structure (SMILES): CC(C)(C)c1cc(C=C(C#N)C#N)cc(Br)c1O; observed: enzyme activity; action: inhibitor; tested at: 0.5 µM; endpoint: remaining activity
Cyclin-dependent kinase 6, with cyclin D3 (CDK6, Homo sapiens, UniProt Q00534): 89.3%
SRMS (Homo sapiens, UniProt Q9H3Y6); baseline: control: 98.4%
CAMK1G (Homo sapiens, UniProt Q96NX5): 104%

Study 3 — endpoint: IC50
Compound: CN(C)C(=O)COC(=O)Cc1ccc(OC(=O)c2ccc(NC(=N)N)cc2)cc1
Kallikrein-14 (Homo sapiens, UniProt Q9P0G3): 999 nM
F11 (Homo sapiens, UniProt P03951): 3.46 nM
Plasminogen (PLG, Homo sapiens, UniProt P00747): 5.62 nM
Kallikrein-12 (Homo sapiens, UniProt Q9UKR0): 1310 nM
trypsin; enzyme activity, inhibitor: 0.524 nM
PLAU (Homo sapiens, UniProt P00749): 16.4 nM
Transmembrane protease serine 6 (Homo sapiens, UniProt Q8IU80): 7.8 nM

Further values, each from its own experiment
Cc1ncsc1-c1ccc(CNC(=O)[C@@H]2C[C@@H](O)CN2C(=O)[C@@H](NC(=O)CCCCCNC(=O)Cc2ccccc2)C(C)(C)C)cc1  logD (1,9-decadiene/water) (linear regression of PRP log k'): -2.34
